# Published values from different studies.
# Lines come from different studies, so protocols differ. Values joined by “and” are separate records of one study, mostly repeats; a detail may differ. Numbers after ± are the reported error.
# IDE: Insulin-degrading enzyme (IDE, Homo sapiens, UniProt P14735)
Compound,tested on,test,test system,conditions,how to read,quantity,value
NS(=O)(=O)OC[C@@H]1C[C@@H](n2ccc3c(N[C@H]4CCc5ccccc54)ncnc32)C[C@@H]1O,,"LC-MS/MS, non-compartmental","human, plasma","intravenous, all dose levels, cycle 1 day 1, median",,AUC(0-24h),1490 ng·h/mL
CCc1nn(C)c2nc(-c3ccc(C(=O)O)cc3)nc(NCc3ccc(F)cc3)c12,,,NSG mice,"dose not given, day 6 of treatment",,body weight,21 g and 22.5 g and 20.8 g
Cc1c(-c2ccc(N3CCc4cccc(C(=O)Nc5nc6ccccc6s5)c4C3)nc2C(=O)O)cnn1CC12CC3(C)CC(C)(C1)CC(OCCNCC[C@H](O)CO)(C3)C2,,,"beagle dog, anaesthetised","intravenous infusion, 0.1 mg/kg/min, 45 min",relative to: baseline,mean arterial pressure change,0 mmHg
Cc1cccc(CNC(=O)c2cn(CCNC(=O)c3ccccc3S)c3cc4c(cc3c2=O)OC(F)(F)O4)n1,,,"Sprague-Dawley rat, male, plasma","intramuscular, 30 mg/kg of parent drug",,bioavailability,23.7 ± 5%
O=C(Nc1cnccc1Cl)N1CCN(Cc2ccc3c(c2)OC(F)(F)O3)CC1,,multiple ascending dose,young men,"10 mg, treatment-emergent adverse events",,postural dizziness incidence,0%
OCc1nc2ccc(NCc3ccc(C(F)(F)F)cc3)cc2[nH]1,,rapid equilibrium dialysis,mouse brain homogenate,"2 µM, 4 h, 37 °C",,brain homogenate binding,95.5%
COc1ccc(C[C@@H](C)[C@@H](C)Cc2ccc(OC)c(OC)c2)cc1OC,,,"beagle dog female, plasma","oral, 300 mg/kg/day, day 1",,AUC(0-t),29900 ± 26900 ng·h/mL
CC(C)(C(=O)N1CCOc2c(C#N)cncc2C1)C(F)F,,,"healthy humans, both sexes, plasma","oral, 30 mg single dose, 3-fold dose increase",relative to: 30 mg over 10 mg,AUClast dose proportionality ratio,2.16
Cc1ccc(-c2ccc([C@@H]3[C@@H](CO)N4CCCCN(S(=O)(=O)c5ccccc5C)C[C@@H]34)cc2)cc1C,IDE,"enzyme activity, inhibitor, fluorescence kinetic",,together with: Mca-RPPGFSAFK(Dnp)-OH substrate,,EC50,140 nM
OB1NN=Cc2ccccc21,,"stability, UPLC-MS",diluted serum,"3 day, 37 °C",higher = more compound remaining,peak area,305000 a.u. and 309000 a.u. and 310000 a.u.
Cc1ccccc1-c1ccc([C@@H]2[C@H]3CN(C(=O)Cc4ccccn4)CC(=O)N3[C@H]2CO)cc1,IDE,"enzyme activity, inhibitor, fluorogenic kinetic",,together with: Mca-RPPGFSAFK(Dnp)-OH substrate,,EC50,2000 nM
CN1CCC[C@H](CN2c3ccccc3Sc3ccccc32)C1.Cl,,,"Wistar rat female, kidney","oral, 16 mg/kg",,AUC(0-t),55100 ng·h/mL
O=C(Nc1nc2cccc(-c3ccc(CN4CCS(=O)(=O)CC4)cc3)n2n1)C1CC1,,item: vomiting,rheumatoid arthritis patients,"oral, 30 mg once daily, 4 weeks, any relatedness",,treatment-emergent adverse events,0%
Cc1ccc(Sc2ccccc2N2CCNCC2)c(C)c1,,,elderly women,"oral, 10 mg single",,any adverse event,25%
Cc1[nH]c(C)c(-c2ccc(OCc3cc(F)cc(F)c3)nc2)c(=O)c1Cl,Plasmodium yoelii,,17XL,384-well,,IC50,165 ± 55 nM
C[C@]12O[C@H](C[C@]1(O)CO)n1c3ccccc3c3c4c(c5c6ccccc6n2c5c31)CNC4=O,HBL-1,,,"1 µM, 120 h",,viability,2.76%
CO[C@H]1CC[C@H](N2C(=O)CNc3ncc(-c4ccc(C(C)(C)O)nc4)nc32)CC1,,,"patients, urine","oral, 60 mg, day -1, geometric mean",,renal clearance,0.657 mL/min
Cc1ccc(C(=O)Nc2ccc(S(=O)(=O)O)c3cc(S(=O)(=O)O)cc(S(=O)(=O)O)c23)cc1NC(=O)c1cccc(NC(=O)Nc2cccc(C(=O)Nc3cc(C(=O)Nc4ccc(S(=O)(=O)O)c5cc(S(=O)(=O)O)cc(S(=O)(=O)O)c45)ccc3C)c2)c1,HBL-1,,,"0.1 µM, 120 h",,viability,112%
C[C@@H](N)C1CCN(S(=O)(=O)c2cccc3cnccc23)CC1,,,healthy volunteers,"75 mg, fasted",,discontinuations due to TEAEs,0%
CCc1cc(C(=O)NC)c2nccc(N3CCc4c(cc(Cn5ccnc5)cc4-c4cn(C)nc4C(F)(F)F)C3=O)c2c1,,,Sprague Dawley rats,"oral, 50 mg/kg once daily, 7 days",relative to: vehicle,serum AST change,1.8%
[18F]c1ccc(-c2ccc3c(c2)[nH]c2ccncc23)cn1,,ex vivo biodistribution,"APP/PS1 mouse, AD model, heart","intravenous, 30 min",,SUV,0.522 ± 0.071
C[C@@H]1OC(=O)[C@H](Cc2ccccc2)[C@H]1O,,aerobic dark soil incubation,sandy loam soil,"20 °C, modelling endpoint",,DT50,1.45 days
FC(F)(F)c1ccc(CNc2ccc(Cc3c[nH]c4ncc(Cl)cc34)cn2)cn1,,item: memory impairment,"human, advanced solid tumours, non-TGCT cohort","oral, 1000 mg/day, grade 3 or higher",,treatment-related adverse events,0%

# A few entries again:
Compound,tested on,test,test system,conditions,how to read,quantity,value
OCc1nc2ccc(NCc3ccc(C(F)(F)F)cc3)cc2[nH]1,,rapid equilibrium dialysis,mouse brain homogenate,"2 µM, 4 h, 37 °C",,brain homogenate binding,95.5%
COc1ccc(C[C@@H](C)[C@@H](C)Cc2ccc(OC)c(OC)c2)cc1OC,,,"beagle dog female, plasma","oral, 300 mg/kg/day, day 1",,AUC(0-t),29900 ± 26900 ng·h/mL
CC(C)(C(=O)N1CCOc2c(C#N)cncc2C1)C(F)F,,,"healthy humans, both sexes, plasma","oral, 30 mg single dose, 3-fold dose increase",relative to: 30 mg over 10 mg,AUClast dose proportionality ratio,2.16
